Assay results pooled from the literature.
Numbered parts are unrelated; each lists some results of a single study.

Study 1 — method: aptamer microarray, sandwich; form: DNA with 2'F-ANA; sample: in vitro; tested at: 200 nM; with: Cy3 exosite-II aptamer, 400 nM; reading: higher = stronger binding; quantity: mean fluorescence intensity; oligonucleotide: GGTTGGTGTGGTTGG
Target: Prothrombin, mature alpha-thrombin (F2, Homo sapiens, UniProt P00734)
Setting: whole 15-mer aptamer, many near background
2'F-ANA at 2 4 6 9 10 13: 67.7 a.u.
2'F-ANA at 3 4 6 7 8 10 11 13 14 15: 146 a.u.
2'F-ANA at 3 5 8 12 13 15: 225 a.u.
2'F-ANA at 1 2 11 13 15: 119 a.u.
2'F-ANA at 7 8 9 10 12 13 14 15: 121 a.u.
2'F-ANA at 3 4 5 7 10 11 13 15: 47.8 a.u.
2'F-ANA at 1 4 8 12: 343 a.u.
2'F-ANA at 1 4 6 7 10 11 12 13: 52.7 a.u.
2'F-ANA at 1 2 4 5 10 12: 47.4 a.u.
2'F-ANA at 2 5 8 9 11 13 15: 59.2 a.u.
2'F-ANA at 1 2 4 5 6 7 8 9 12 13 14 15: 54.7 a.u.
2'F-ANA at 3 4 5 7 9 10 11 14: 46.1 a.u.
2'F-ANA at 6 7 8 11 12: 718 a.u.
2'F-ANA at 1 2 4 5 8: 64.1 a.u.
2'F-ANA at 1 3 8 11 12 13 14 15: 119 a.u.
2'F-ANA at 1 4 5 7 8 9 11 14: 50.7 a.u.
2'F-ANA at 1 4 6 10 12 15: 85.2 a.u.
2'F-ANA at 1 6 7 8 12 13 14 15: 74.4 a.u.
2'F-ANA at 4 5 9 10 11 12 13 15: 50.1 a.u.
2'F-ANA at 6 7 9 12 13 15: 603 a.u.

Study 2 — method: protein-binding microarray; form: double-stranded DNA, one strand shown; sample: in vitro; tested at: 2200 nM top; setting: 60-bp whole probe; with: salmon DNA 0.4 mg/ml; relative to: random background probes; reading: higher = stronger binding; quantity: fitted relative affinity; shared flanks, not repeated: GCCTAGCAC … GTCTTGATTCGCTTGACGCTGCTG
Target: Interferon regulatory factor 7, full length, phosphomimetic (IRF7, Homo sapiens, UniProt Q92985, residues 1-503, S471D/S472D/S475D/S476D/S477D/S483D/S484D/S487D)
Construct (chain): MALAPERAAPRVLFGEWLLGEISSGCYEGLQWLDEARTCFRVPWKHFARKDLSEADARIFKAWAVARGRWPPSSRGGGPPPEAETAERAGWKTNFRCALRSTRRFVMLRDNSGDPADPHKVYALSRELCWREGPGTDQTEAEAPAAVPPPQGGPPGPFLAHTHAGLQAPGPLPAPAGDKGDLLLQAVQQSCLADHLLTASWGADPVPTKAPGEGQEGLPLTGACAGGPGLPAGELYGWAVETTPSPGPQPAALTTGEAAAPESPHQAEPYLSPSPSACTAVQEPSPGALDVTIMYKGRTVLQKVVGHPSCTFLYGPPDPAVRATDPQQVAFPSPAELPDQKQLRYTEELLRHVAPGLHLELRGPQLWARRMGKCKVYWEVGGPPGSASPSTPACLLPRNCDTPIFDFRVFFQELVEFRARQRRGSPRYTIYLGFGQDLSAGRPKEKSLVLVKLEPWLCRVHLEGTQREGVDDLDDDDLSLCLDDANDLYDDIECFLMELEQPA
GACGATATCGGGTTTCGACACGTGCTA: 1.38 z-score
CCAAGGTTCAAGTTTACCCATGTGCTA: 0.0396 z-score
GAAGGTATCGACACTGGGGACGTGCTA: -0.36 z-score
CTTTATGTCCTGTCTACATGGGTGCTA: 1.08 z-score
GACGACTTCGGGTATCGAGACGTGCTA: 0.0952 z-score
TTAGGTTTCGGGTACCGGTTAGTGCTA: 5.52 z-score
GGGCCACAAAGCAATAAGAAGTGCTAG: -1.48 z-score
TGAGATTTCGGGACTGGATTAGTGCTA: 0.786 z-score
TCATCCATGTGTTTAAAACTGTGCTAG: 1.04 z-score
TCTGTTTTTGCTTTCCTTCTGTGCTAG: 5.97 z-score
TCAAGTTTTGAGCTCTGACTGTGCTAG: 0.47 z-score
GACGGTTTCTTTTTCCTGACGTGCTAG: 4.14 z-score
GACGAACTGAGTCTCGAGAAGTGCTAG: -0.397 z-score
TGTGCCATATTTATCTGCAAGTGCTAG: 0.665 z-score
GACGGTTCCGGGACTGGGGACGTGCTA: 0.00597 z-score
TCAAATCTCTCATGTTACACTGTGCTA: 0.717 z-score
GACGGTAACGACTATCGGGACGTGCTA: -0.694 z-score
ATTCTCTTCTTGCATCTGGGTGTGCTA: 2.5 z-score
TTTATTTTCAGTATTACCTCGTGCTAG: 3.84 z-score
TGGAGAGTAGCTTTCTGAGGGTGCTAG: -0.252 z-score
TCATCTATGTCTGTTTTACTGTGCTAG: 2.07 z-score
GATGGACTGCTTATCCTGACGTGCTAG: 0.409 z-score
TCATTTTTTTCATTATTACTGTGCTAG: 2.94 z-score
TTAGAACTGCGGTTTCGATTAGTGCTA: 3.46 z-score
GACGACCTCAGACTGGAGACGTGCTAG: -0.329 z-score

Study 3 — method: protein binding microarray; form: double-stranded DNA, one strand shown; sample: in vitro; tested at: not given; relative to: not given; reading: higher = stronger binding; quantity: E-score
Target: Histone acetyltransferase KAT6A, both winged helices, GST fusion (KAT6A, Homo sapiens, UniProt Q92794, residues 1-181)
Setting: 8-mer, flanks averaged, mean of 2 arrays, mostly near background
Construct (chain): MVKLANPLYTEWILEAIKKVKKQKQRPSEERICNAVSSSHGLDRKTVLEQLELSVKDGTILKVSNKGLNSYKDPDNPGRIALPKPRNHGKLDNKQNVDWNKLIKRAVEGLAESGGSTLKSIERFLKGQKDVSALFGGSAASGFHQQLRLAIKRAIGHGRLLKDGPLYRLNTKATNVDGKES
ATAGGAGC: -0.028
CCCTCCGC: 0.106
TAGTTCCA: -0.0389
CATGTCAG: -0.134
TGGTGAAA: 0.0364
ACGGTATC: 0.173
ATGACTTA: -0.122
GGGGAGGA: -0.127
AAGCGGAA: 0.205
TAAAGCAA: -0.12
ACGTGGCA: -0.149
TCCCTACA: -0.117
CCAGAGAA: -0.047
CTGTCGCA: 0.0701
GGAGACCC: -0.082
ATGCGGAG: -0.00234
CGCGGAAA: 0.354
CAATATCC: -0.0237
GCAAAGTA: -0.12
AGGCTCAG: -0.176
AAAGGACT: -0.176

Study 4 — method: RNA Bind-n-Seq; form: RNA; sample: in vitro; tested at: 365 nM; relative to: no-protein control; reading: higher = stronger binding; quantity: RBNS enrichment (R)
Target: RNA binding protein fox-1 homolog 2, RRM domain, GST-SBP tag (RBFOX2, Homo sapiens, UniProt O43251-10, residues 100-194)
Setting: natural RNA segment, single round, ends assumed
Shared flanks, not repeated: GGGAGUUCUACAGUCCGACGAUC … UGGAAUUCUCGGGUGCCAA
Residues (chain): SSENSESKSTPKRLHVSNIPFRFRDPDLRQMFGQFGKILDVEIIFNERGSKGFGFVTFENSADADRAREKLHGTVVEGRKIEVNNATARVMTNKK
AGGUAUUUAAAUUGUUCAUCUUAGUUGACUUUCCCAAGCCAUACUUCUAAAACAAAACACCAGCCCCAUAGACCACUGAGCACCUAGGGAGGUUUCUCUGCCUAGCCAUA: 0.33
GGCUGCCCAACCCUGACUCAGAGAAUGAGGGUGGCUUGGACCCCUGGGAAUCAGGCCGCCGAGGGCUGAGCUCCAGAGCCGCACCAUCUGCCACAAACAGAAUUCGAGAC: 0.356
AGUCAUUGGCUCUAUCUGCAUUUUUCUGUCAUUCUCUUCAUUUGUUUUAAGGUGGAAAAUUUUCUUACAGUUGAUGCAAAGUAUCAACUACUUUACCCUACCUUCUCCCC: 3.45
ACCCUAGUUUAAAAAGCGGUUCAAGAAUAAUGUAAACUUAUACAUAUAGCUUAUUUUCUUCAUUUACUAGAGGAGGAAAAAUAGAACCAAAAAAUGCAUGAACUCCUGCU: 0.606
AGCACUGCCACCUUGUGUCCAUAUAGCACAAUGUUUCUCUUUCCUAUUCACAGACAAGAUUCAAGAAACCAUUUUUACGUGUGUACAUUCAAAUCUUCAUGAAUGGCAUC: 0.461
GCCCCACGCUGCUGCUAACGACAGUAUGAUGCUUACUCUGCUACUCGGAAACUAUUUUUAUGUAAUUAAUGUAUGCUUUCUUGUUUAUAAAUGCCUGAUUUAAAAAGAAA: 12.1
CAGGUUAAGUGUGAGUAAUCUGAGAAACAAUGACUAAUUCUUGCAUAUUUUGUAACUUCCAUGUGAGGGUUUUCAGCAUUGAUAUUUGUGCAUUUUCUAAACAGAGAUGA: 8.4
ACAUUGCACACACUGUAAGAAAUGCACUUUCCGAGGAAGGGGAUGGGGGAGCCCGGACACCCAGAGCUCCCCGAGUUGGGGGUGCCCGUCUGGAGCGCCCCCGUCAGCCC: 0.449
UUGGAACAGCCAUGCCUUCCAAAAGCUAUCAACCUGGGCCCUGAGCCCUGUAAGCAGAUGCCCCAGAGCUGGGGUGUGAGAGAGGGGCUGGGGGACCCCACGAUACAGCC: 0.425
CACAGGACAGCACUGCUUCCAUGCUUCAUACAUCAGGAAAUGAGGCCAGAACUUGAGUAUUUACUAACACGUUUUUCAAAAGAUGUCAGUGUUAUACCUAAAGCUAAAAA: 0.277
AUGUCAUGGUCUAAACACCAAAAAGUGAUGCCCCGCAUUCCUUCCCUGGAUGGUACCGUUUCUUCUCCGUCUCUCUUUGAUGAUUCUUUGGGACCAAAGUCCUCUCCUUA: 0.202
AUUAGAAAAUAUGAAGUCGCAUGCACUGGAUAUCUAUAUAUCAUUAGGUUUUUGUUGUGUUUUUGGUUAUGCUGUCCCCCUUCUCCUUGGGGAGAUAUUUGGGAGCAAAC: 1.84

A few entries again (study 4):
AGGUAUUUAAAUUGUUCAUCUUAGUUGACUUUCCCAAGCCAUACUUCUAAAACAAAACACCAGCCCCAUAGACCACUGAGCACCUAGGGAGGUUUCUCUGCCUAGCCAUA: 0.33
GGCUGCCCAACCCUGACUCAGAGAAUGAGGGUGGCUUGGACCCCUGGGAAUCAGGCCGCCGAGGGCUGAGCUCCAGAGCCGCACCAUCUGCCACAAACAGAAUUCGAGAC: 0.356
AGUCAUUGGCUCUAUCUGCAUUUUUCUGUCAUUCUCUUCAUUUGUUUUAAGGUGGAAAAUUUUCUUACAGUUGAUGCAAAGUAUCAACUACUUUACCCUACCUUCUCCCC: 3.45
ACCCUAGUUUAAAAAGCGGUUCAAGAAUAAUGUAAACUUAUACAUAUAGCUUAUUUUCUUCAUUUACUAGAGGAGGAAAAAUAGAACCAAAAAAUGCAUGAACUCCUGCU: 0.606
AGCACUGCCACCUUGUGUCCAUAUAGCACAAUGUUUCUCUUUCCUAUUCACAGACAAGAUUCAAGAAACCAUUUUUACGUGUGUACAUUCAAAUCUUCAUGAAUGGCAUC: 0.461
GCCCCACGCUGCUGCUAACGACAGUAUGAUGCUUACUCUGCUACUCGGAAACUAUUUUUAUGUAAUUAAUGUAUGCUUUCUUGUUUAUAAAUGCCUGAUUUAAAAAGAAA: 12.1
CAGGUUAAGUGUGAGUAAUCUGAGAAACAAUGACUAAUUCUUGCAUAUUUUGUAACUUCCAUGUGAGGGUUUUCAGCAUUGAUAUUUGUGCAUUUUCUAAACAGAGAUGA: 8.4
ACAUUGCACACACUGUAAGAAAUGCACUUUCCGAGGAAGGGGAUGGGGGAGCCCGGACACCCAGAGCUCCCCGAGUUGGGGGUGCCCGUCUGGAGCGCCCCCGUCAGCCC: 0.449
UUGGAACAGCCAUGCCUUCCAAAAGCUAUCAACCUGGGCCCUGAGCCCUGUAAGCAGAUGCCCCAGAGCUGGGGUGUGAGAGAGGGGCUGGGGGACCCCACGAUACAGCC: 0.425
CACAGGACAGCACUGCUUCCAUGCUUCAUACAUCAGGAAAUGAGGCCAGAACUUGAGUAUUUACUAACACGUUUUUCAAAAGAUGUCAGUGUUAUACCUAAAGCUAAAAA: 0.277
AUGUCAUGGUCUAAACACCAAAAAGUGAUGCCCCGCAUUCCUUCCCUGGAUGGUACCGUUUCUUCUCCGUCUCUCUUUGAUGAUUCUUUGGGACCAAAGUCCUCUCCUUA: 0.202
AUUAGAAAAUAUGAAGUCGCAUGCACUGGAUAUCUAUAUAUCAUUAGGUUUUUGUUGUGUUUUUGGUUAUGCUGUCCCCCUUCUCCUUGGGGAGAUAUUUGGGAGCAAAC: 1.84
